# Measured values from different studies.
# Each numbered part is a random draw from the data of one study; scales do not carry over between parts.

# Study 1
# Target: PABPC1L2, full length, GST fusion (mouse, UniProt A0ABA7IW68)
# Method: RNAcompete
# Form: RNA
# Medium: in vitro
# Concentration: 20 nM
# Setting: 7-mer, probes averaged, single round
# Relative to: mean of 7-mers
# Direction: higher = stronger binding
# Construct (chain): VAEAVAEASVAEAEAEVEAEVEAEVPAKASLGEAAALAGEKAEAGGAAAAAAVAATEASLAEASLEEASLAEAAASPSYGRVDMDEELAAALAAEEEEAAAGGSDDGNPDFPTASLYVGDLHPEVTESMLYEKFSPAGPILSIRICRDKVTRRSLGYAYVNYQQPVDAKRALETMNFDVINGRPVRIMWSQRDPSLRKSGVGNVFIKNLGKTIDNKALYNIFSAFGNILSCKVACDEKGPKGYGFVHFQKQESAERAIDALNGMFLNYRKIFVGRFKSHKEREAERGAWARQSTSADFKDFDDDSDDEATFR
Oligonucleotide,7-mer Z-score
GUCCUUA,-0.353
UUCAUAG,-0.266
UGGCCUU,-0.244
GUGUUUA,-0.347
AAUUGGG,0.541
AUAAACA,6.51
GCAGACC,-0.0174
ACUGAGU,-0.106

# Study 2
# Target: Max-binding protein MNT, bHLH-zipper, MAX partner unstated (MNT, Homo sapiens, UniProt Q99583, residues 220-300)
# Method: protein-binding microarray
# Form: double-stranded DNA, one strand shown
# Medium: in vitro
# Concentration: not given
# Setting: k-mer, scored over probes, only values ≥0.25
# Direction: higher = stronger binding
# Construct (chain): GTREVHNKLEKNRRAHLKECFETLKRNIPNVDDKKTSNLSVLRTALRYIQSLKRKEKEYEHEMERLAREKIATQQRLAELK
Oligonucleotide,E-score
CGGCCCCA,0.284
CCAACACG,0.318
ATGTGCAC,0.421
GCATGAGC,0.29
ATGAGGGC,0.325
TGCACGCA,0.331

# Study 3
# Target: Replicase polyprotein 1ab, nsp13 helicase (rep, Severe acute respiratory syndrome coronavirus 2, UniProt P0DTD1)
# Mode: inhibitor
# Concentration: 20 µM
SMILES,inhibition [%]
NCC1CC(=O)N(Cc2ccccc2)C1 (stereo not shown),5.07
CNC(=O)c1c(-c2ccc(F)cc2)oc2cc(N(CCO)S(C)(=O)=O)c(C3CC3)cc12,-3.35
CN(C)CCNc1nc2cc(O)ccc2c2c1C(=O)c1ccccc1-2,103
S=C(S)O[C@@H]1C[C@@H]2C[C@@H]1[C@H]1CCC[C@@H]21,31.2
CCOC(=O)C1=C(C)NC(C)=C(C(=O)OCC)C1c1ccccc1/C=C/C(=O)OC(C)(C)C,7.93
O=C1CCc2cc(OCCCCc3nnnn3C3CCCCC3)ccc2N1,3.73
NCC(CC(=O)O)c1ccc(Cl)cc1 (racemic),-2.69
COc1ccc(-c2oc3c(CC=C(C)C)c(O)cc(O)c3c(=O)c2O)cc1,8.13
CCCCCCCCCCCCCCC[C@@H](O)[C@@H](N)CO,3.08
COc1cc(S(C)(=O)=O)ccc1Nc1nc2ccc(-c3ccc(NC(=O)[C@H](C)c4ccc(F)cc4)cc3)cn2n1,1.69
COc1ccnc2[nH]cc(C(=O)C(=O)N3CCN(C(=O)c4ccccc4)C[C@H]3C)c12,-5.41
CCOc1c2c(c(OCC)c3ccccc13)C(=O)N(c1ccc(CC(=O)NS(=O)(=O)c3ccccc3)cc1)C2,3.37
CCOc1nc2c(N)ncnc2n1CC,-0.46
CCCCOc1cc(C(=O)OCCN(CC)CC)ccc1N,7.6
CNCCCC1(c2ccccc2)OC(C)(C)c2ccccc21 (stereo not shown),8.88
C[C@H]1C[C@H]2[C@@H]3CCC4=CC(=O)C=C[C@]4(C)[C@@]3(Cl)[C@@H](O)C[C@]2(C)[C@@]1(O)C(=O)CO,-2.35
Cc1ncc(NC(=O)c2ccc(CN3CCN(C)CC3)c(C(F)(F)F)c2)cc1Nc1nccc(-c2cccnc2)n1,1.55
C[C@H](N)C(=O)O,-1.29
O=C(Oc1cccc2cccnc12)c1ccccc1,-1.47
O=c1c(-c2ccccc2)c1-c1ccccc1,5.81
CN(C)[C@@H]1C(O)=C(C(N)=O)C(=O)[C@@]2(O)C(O)=C3C(=O)c4c(O)ccc(Cl)c4[C@@H](O)[C@H]3C[C@@H]12,3.53
O=C(c1ccc(OCCCc2c[nH]cn2)cc1)C1CC1,5.1
COCc1nnc(N2CC(Oc3ccc(F)cc3Cl)C2)n1-c1ccc(OC)nc1,11.3
CN(C)CCn1cc(S(=O)(=O)c2cccc(F)c2)c2cccnc21,10.3
CC(C)OC(=O)C1=CN(C(=O)c2ccc(F)c(F)c2)CC(C)(C)c2c1[nH]c1ccccc21,1.47

# Study 4
# Cell line: HEK-293T
# Read-out: pseudovirus infection
# Organism: VSV pseudotyped with SARS-CoV-2 spike
# Concentration: 10 µM
# Time: 16 h
# Relative to: vehicle-treated
Compound,GFP-positive cells
Cc1c(-c2ccc(O)cc2)n(Cc2ccc(OCCN3CCCCCC3)cc2)c2ccc(O)cc12,12.3%
Nc1nc(CC(=O)Nc2ccc(CCNC[C@H](O)c3ccccc3)cc2)cs1,81.2%
CN(N=O)C(=O)N[C@@H](C=O)[C@@H](O)[C@H](O)[C@H](O)CO,84.2%
Cc1cn([C@@H]2C[C@@H](O)[C@H](CO)O2)c(=O)[nH]c1=O,97.8%
C[C@@H](O)[C@H]1C(=O)N2C(C(=O)O)=C(SCCN=CN)C[C@H]12,90.4%

# Study 5
# Target: Sal-like protein 4, full length isoform A (SALL4, Homo sapiens, UniProt Q9UJQ4, residues 1-1053)
# UniProt Q9UJQ4, sequence (whole entry, looked up): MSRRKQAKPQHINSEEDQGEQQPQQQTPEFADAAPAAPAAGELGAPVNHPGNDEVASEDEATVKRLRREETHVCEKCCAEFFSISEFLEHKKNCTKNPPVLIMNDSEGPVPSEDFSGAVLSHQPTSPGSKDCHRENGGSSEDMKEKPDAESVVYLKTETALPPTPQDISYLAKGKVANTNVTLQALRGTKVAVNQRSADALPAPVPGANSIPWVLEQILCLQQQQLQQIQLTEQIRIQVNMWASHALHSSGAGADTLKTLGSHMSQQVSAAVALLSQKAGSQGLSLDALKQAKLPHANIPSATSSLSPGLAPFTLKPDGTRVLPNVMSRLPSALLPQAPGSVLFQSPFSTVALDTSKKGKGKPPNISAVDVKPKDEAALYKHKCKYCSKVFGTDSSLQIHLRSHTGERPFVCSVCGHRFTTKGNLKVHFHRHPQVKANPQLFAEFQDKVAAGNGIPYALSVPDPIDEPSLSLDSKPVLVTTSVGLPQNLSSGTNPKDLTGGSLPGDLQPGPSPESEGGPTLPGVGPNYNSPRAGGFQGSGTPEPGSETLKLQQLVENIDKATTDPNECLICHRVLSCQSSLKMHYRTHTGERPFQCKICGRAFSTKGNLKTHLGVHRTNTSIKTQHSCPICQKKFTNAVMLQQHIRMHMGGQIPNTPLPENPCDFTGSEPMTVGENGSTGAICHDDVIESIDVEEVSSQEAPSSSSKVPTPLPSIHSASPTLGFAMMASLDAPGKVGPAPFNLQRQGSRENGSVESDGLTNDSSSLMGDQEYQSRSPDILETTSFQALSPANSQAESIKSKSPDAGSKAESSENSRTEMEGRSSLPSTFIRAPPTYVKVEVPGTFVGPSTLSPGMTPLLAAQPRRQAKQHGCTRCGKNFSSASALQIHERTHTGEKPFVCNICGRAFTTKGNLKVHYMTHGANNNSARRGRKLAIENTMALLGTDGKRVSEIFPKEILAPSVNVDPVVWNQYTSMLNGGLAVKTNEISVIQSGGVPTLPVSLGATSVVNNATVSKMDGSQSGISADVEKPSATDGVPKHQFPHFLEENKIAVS
# Method: universal PBM
# Form: double-stranded DNA, one strand shown
# Medium: in vitro
# Concentration: 600 nM
# Setting: 8-mer, flanks averaged, mean of replicates
# Direction: higher = stronger binding
Oligonucleotide,E-score
CCCATTCG,-0.112
CCGCTAGG,-0.235
GAGTGAGC,-0.096
ATTACTCA,0.266
CGAAACCC,-0.305
AATAATGC,0.336
CCGCCCTA,-0.124
GTAACCTA,0.189

# Study 6
# Target: Replicase polyprotein 1ab, main protease (rep, Severe acute respiratory syndrome coronavirus 2, UniProt P0DTD1)
# Read-out: enzyme activity
# Mode: inhibitor
SMILES,IC50 [µM]
CCCCCCCCCCCCCCCCCC[S+](CCC)c1ccccc1C(=O)OCC (stereo not shown),12.1
Cc1cc(-c2ccc(/C=C3/SC(Nc4ccc(Cl)c(C(=O)O)c4)=NC3=O)o2)c([N+](=O)[O-])cc1C,> 20
CN(C)S(=O)(=O)c1cccc(-n2sc3ccccc3c2=O)c1,0.01

# For quick reference, copied from above (study 4):
Compound,GFP-positive cells
Cc1c(-c2ccc(O)cc2)n(Cc2ccc(OCCN3CCCCCC3)cc2)c2ccc(O)cc12,12.3%
Nc1nc(CC(=O)Nc2ccc(CCNC[C@H](O)c3ccccc3)cc2)cs1,81.2%
CN(N=O)C(=O)N[C@@H](C=O)[C@@H](O)[C@H](O)[C@H](O)CO,84.2%
Cc1cn([C@@H]2C[C@@H](O)[C@H](CO)O2)c(=O)[nH]c1=O,97.8%
C[C@@H](O)[C@H]1C(=O)N2C(C(=O)O)=C(SCCN=CN)C[C@H]12,90.4%
